Assay results from different studies.
Values joined by “and” are separate records of one study, mostly repeats; a detail may differ. ± marks the error that the study gave.

| SMILES | assay | test system | setting | scale | endpoint | result |
| --- | --- | --- | --- | --- | --- | --- |
| O=C1CN=C(c2ccccc2)c2cc(/N=N/c3ccc(S(=O)(=O)O)cc3)ccc2N1 | HPLC | DMSO | 50 µM, together with: 365 nm irradiation | – | cis isomer at photostationary state | 88% |
| NC(=O)[C@H]1CCN(c2ncnc(N)c2F)C[C@@H]1N1CCC[C@@H](Nc2cc(Cl)cc(C(F)(F)F)c2)C1=O | – | B-cell malignancy patients | oral, 410 mg twice daily, dose | – | grade ≥3 leukocytosis | 0% |
| O=S(=O)(Nc1ccccc1)c1ccc(NC(=S)Nc2ccccc2)cc1 | – | female mice, heart | oral, 80 mg/kg daily 14 days | baseline: body weight | relative organ weight | 0.48% |
| C=CCNc1c(O)cc2c(O)c1C[C@@H](C)C[C@H](OC)[C@H](O)[C@@H](C)/C=C(\C)[C@H](OC(N)=O)[C@@H](OC)/C=C\C=C(/C)C(=O)N2 | – | unresectable or metastatic sarcoma | intravenous, 90 mg/m^2, grade 3-4 lab change | – | patients with ALP increase | 17% |
| CN1CCN(S(=O)(=O)c2cc([N+](=O)[O-])ccc2N(CCOS(C)(=O)=O)CCOS(C)(=O)=O)CC1 | – | NOD/SCID mouse, naive, blood | intraperitoneal, 25 mg/kg, week 4 | – | hemoglobin | 180 g/L and 162 g/L and 148 g/L and 168 g/L |
| Cc1cc(C)c(CNC(=O)c2cc(Cl)c3c(c2C)O[C@@](C)([C@H]2CC[C@H](N(C)C)CC2)O3)c(=O)[nH]1 | – | relapsed/refractory NHL patients | dose not given, trial, safety set, treatment-related TEAE grade 5 | – | incidence of blood LDH increased | 0% |
| CC(=O)c1c(C)c2cnc(Nc3ccc(C4CCN(CCS(C)(=O)=O)CC4)cn3)nc2n(C2CCCC2)c1=O | – | human, plasma | oral, 75 mg twice daily, day 1, single dose, together with: fulvestrant | – | Vd | 816 L |
| C=CC(=O)N1CC[C@H](n2nc(C#Cc3cc(OC)cc(OC)c3)c3c(N)ncnc32)C1 | – | human patients | oral, dose not given, QD regimen, adverse drug reaction, together with: lanthanum carbonate hydrate | – | decreased appetite, any grade | 54.2% |
| CC(C)C[C@H](NC(=O)[C@H](CCCCN)NC(=O)OCC1c2ccccc2-c2ccccc21)C(=O)N[C@H](C(=O)N[C@@H](Cc1ccccc1)C(=O)N[C@@H](Cc1ccccc1)C(=O)N[C@@H](CCCCN)C(=O)NCC(=O)N[C@@H](Cc1ccccc1)C(=O)N[C@@H](C)C(=O)N[C@@H](Cc1c[nH]c2ccccc12)C(=O)N[C@@H](CC(N)=O)C(=O)N[C@H](C(=O)N[C@H]1CSSC[C@@H](C(=O)N[C@@H](Cc2c[nH]cn2)C(=O)N[C@@H](CCCNC(=N)N)C(=O)N[C@@H](CCCNC(=N)N)C(=O)N[C@@H](C)C(=O)N[C@@H](CC(N)=O)C(N)=O)NC(=O)[C@H](C(C)C)NC(=O)[C@H](CCCNC(=N)N)NC(=O)[C@H](C(C)C)NC(=O)CNC(=O)[C@H](CC(N)=O)NC(=O)[C@H](CCCNC(=N)N)NC(=O)[C@H](Cc2ccc(O)cc2)NC(=O)[C@H](C(C)C)NC1=O)C(C)C)C(C)C | – | ICR mouse, blood | intramammary, 10 mg/kg, day 5, 3 d dosing | – | creatinine | 82.6 ± 3.33 µmol/L |
| CN1CC[C@@H](c2c(O)cc(O)c3c(=O)cc(-c4ccc(C(F)(F)F)cc4Cl)oc23)[C@@H]1CO | measured: Hypotension | B-cell malignancies | oral, 100 mg, intermittent dosing | – | patients with adverse event | 0% |
| CCc1ccc(CC/C=C/c2ccc3c(c2)C(=O)CC3)cc1 | – | Sprague-Dawley rat, female, blood | oral, 120 mg/kg/day, 14 days | – | mean platelet volume | 10.9 fL |
| COc1cc(N2CCC(N3CCN(C)CC3)CC2)ccc1Nc1ncnc(Nc2ccccc2S(=O)(=O)C(C)C)n1 | measured: Vomiting | Japanese patients with solid tumours | oral, dose not given, all grades | – | treatment-emergent adverse events | 7 number (percent) |
| CO[C@H]1C[C@@H]2CC[C@@H](C)[C@@](O)(O2)C(=O)C(=O)N2CCCC[C@H]2C(=O)O[C@H]([C@H](C)C[C@@H]2CC[C@@H](OC(=O)NCCOCCOCCOCCOCCOCCOCCOCCOCCC(=O)N3CCc4cc(Cn5nc(-c6ccc7oc(N)nc7c6)c6c(N)ncnc65)ccc4C3)[C@H](OC)C2)C[C@@H](O)[C@H](C)/C=C(\C)[C@@H](O)[C@@H](OC)C(=O)[C@H](C)C[C@H](C)/C=C/C=C/C=C/1C | – | patients with advanced solid tumours | intravenous, 16 mg weekly, grade 3 or higher | – | vomiting incidence | 0% |
| C[C@]1(CO)Cc2ncn(-c3ccc(C#N)c(Cl)c3)c2C(=O)O1 | – | human | oral, 10 mg, fed, single dose, geometric mean | – | Cmax | 335 nM |
